Results from different studies.
Numbered parts are unrelated; each lists some results of a single study.
UniProt P50750, sequence (whole entry, looked up): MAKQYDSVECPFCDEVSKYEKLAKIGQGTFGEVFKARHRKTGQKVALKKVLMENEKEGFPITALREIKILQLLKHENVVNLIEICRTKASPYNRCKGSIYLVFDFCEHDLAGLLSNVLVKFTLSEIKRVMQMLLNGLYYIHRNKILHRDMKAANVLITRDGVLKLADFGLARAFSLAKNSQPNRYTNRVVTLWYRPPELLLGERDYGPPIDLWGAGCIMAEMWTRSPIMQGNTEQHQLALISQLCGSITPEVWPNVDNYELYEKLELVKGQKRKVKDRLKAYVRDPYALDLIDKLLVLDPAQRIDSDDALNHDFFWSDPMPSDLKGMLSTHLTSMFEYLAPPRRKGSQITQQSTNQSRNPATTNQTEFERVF
UniProt Q6P2M8, sequence (whole entry, looked up): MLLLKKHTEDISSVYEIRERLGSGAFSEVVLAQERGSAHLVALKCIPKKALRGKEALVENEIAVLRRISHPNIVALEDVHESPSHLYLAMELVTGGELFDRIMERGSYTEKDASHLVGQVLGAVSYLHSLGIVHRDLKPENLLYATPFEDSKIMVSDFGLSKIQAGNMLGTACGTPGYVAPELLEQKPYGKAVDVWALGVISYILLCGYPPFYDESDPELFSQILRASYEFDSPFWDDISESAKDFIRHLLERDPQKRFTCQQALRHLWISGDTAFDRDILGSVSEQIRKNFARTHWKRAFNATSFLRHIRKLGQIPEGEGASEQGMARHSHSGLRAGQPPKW
UniProt P14416, sequence (whole entry, looked up): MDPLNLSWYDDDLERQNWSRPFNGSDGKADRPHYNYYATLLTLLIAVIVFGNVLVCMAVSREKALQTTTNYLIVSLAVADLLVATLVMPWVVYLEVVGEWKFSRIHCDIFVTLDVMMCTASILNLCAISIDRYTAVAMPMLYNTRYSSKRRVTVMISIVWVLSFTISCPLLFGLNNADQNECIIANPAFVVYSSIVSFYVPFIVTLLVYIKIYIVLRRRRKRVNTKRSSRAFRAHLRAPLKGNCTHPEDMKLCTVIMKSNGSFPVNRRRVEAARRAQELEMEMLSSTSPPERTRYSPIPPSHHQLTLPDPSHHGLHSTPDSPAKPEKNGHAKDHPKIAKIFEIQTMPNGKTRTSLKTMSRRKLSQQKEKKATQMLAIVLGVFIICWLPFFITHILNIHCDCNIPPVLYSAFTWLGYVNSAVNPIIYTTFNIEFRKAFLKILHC
UniProt P42336, sequence (whole entry, unmodified, looked up): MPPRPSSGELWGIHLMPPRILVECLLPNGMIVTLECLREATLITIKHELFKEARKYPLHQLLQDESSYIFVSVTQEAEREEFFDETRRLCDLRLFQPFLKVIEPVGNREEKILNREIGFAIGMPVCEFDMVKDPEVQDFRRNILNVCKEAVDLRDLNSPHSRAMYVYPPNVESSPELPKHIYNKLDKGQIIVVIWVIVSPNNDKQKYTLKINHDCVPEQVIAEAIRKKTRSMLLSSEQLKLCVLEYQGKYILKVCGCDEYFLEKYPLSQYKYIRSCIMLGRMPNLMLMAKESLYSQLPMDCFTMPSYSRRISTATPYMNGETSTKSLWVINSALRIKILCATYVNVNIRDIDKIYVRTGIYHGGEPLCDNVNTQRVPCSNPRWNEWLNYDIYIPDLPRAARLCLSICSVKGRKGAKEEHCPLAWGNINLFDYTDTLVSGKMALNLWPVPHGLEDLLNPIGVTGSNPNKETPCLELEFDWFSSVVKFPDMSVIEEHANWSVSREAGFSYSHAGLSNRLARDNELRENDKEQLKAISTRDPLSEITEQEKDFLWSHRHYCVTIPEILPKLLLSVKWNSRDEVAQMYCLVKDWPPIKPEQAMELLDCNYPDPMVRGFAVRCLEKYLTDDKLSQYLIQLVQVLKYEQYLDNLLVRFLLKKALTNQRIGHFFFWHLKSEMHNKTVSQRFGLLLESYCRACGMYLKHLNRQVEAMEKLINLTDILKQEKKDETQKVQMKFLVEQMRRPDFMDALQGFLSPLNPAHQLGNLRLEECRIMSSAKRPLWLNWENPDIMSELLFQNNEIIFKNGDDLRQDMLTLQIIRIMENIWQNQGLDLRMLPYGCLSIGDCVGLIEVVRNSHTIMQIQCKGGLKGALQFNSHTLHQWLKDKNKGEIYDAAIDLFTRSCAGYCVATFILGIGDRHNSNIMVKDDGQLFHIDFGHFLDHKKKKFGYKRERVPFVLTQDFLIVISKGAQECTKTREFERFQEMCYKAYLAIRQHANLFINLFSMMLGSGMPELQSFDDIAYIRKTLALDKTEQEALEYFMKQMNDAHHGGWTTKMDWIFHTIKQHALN
UniProt O75676, sequence (whole entry, looked up): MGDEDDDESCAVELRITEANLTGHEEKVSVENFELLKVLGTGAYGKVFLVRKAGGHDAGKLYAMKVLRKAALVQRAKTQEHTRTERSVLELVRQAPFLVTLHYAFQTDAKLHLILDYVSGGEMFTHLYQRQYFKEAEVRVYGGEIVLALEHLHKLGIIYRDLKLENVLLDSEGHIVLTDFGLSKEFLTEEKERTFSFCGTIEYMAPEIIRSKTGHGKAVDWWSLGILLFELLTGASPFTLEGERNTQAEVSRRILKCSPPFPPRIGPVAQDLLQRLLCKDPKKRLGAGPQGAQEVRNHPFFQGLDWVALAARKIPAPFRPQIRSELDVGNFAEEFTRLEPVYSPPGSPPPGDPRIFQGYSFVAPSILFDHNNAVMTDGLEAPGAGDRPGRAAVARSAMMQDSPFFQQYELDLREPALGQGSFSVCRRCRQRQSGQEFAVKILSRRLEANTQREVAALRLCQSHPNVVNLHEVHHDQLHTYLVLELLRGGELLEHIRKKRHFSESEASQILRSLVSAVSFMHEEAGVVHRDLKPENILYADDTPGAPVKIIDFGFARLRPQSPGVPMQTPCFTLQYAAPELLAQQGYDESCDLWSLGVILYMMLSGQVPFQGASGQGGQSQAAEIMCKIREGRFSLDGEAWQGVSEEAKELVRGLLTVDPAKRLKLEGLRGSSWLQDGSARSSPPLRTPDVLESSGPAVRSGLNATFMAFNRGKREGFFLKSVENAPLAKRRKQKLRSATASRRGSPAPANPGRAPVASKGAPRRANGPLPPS
UniProt P30291, sequence (whole entry, looked up): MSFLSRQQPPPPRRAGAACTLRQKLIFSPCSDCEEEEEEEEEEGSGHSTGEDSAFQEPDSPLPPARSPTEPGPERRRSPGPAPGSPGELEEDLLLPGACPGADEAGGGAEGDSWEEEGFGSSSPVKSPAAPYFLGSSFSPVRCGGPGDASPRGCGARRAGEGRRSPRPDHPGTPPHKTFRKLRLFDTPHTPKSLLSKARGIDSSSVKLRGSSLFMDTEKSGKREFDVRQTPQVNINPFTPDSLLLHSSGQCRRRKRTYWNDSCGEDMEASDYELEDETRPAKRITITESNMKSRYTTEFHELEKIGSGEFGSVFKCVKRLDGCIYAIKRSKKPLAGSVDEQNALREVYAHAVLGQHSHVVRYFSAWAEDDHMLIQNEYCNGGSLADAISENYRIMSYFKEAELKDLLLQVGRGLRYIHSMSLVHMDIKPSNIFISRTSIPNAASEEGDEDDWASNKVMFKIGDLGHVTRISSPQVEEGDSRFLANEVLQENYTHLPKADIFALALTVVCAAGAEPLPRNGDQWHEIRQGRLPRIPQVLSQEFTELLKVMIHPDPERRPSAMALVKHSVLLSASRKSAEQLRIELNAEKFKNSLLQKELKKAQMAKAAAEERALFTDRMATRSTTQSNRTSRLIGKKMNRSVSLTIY
UniProt P42681, sequence (whole entry, looked up): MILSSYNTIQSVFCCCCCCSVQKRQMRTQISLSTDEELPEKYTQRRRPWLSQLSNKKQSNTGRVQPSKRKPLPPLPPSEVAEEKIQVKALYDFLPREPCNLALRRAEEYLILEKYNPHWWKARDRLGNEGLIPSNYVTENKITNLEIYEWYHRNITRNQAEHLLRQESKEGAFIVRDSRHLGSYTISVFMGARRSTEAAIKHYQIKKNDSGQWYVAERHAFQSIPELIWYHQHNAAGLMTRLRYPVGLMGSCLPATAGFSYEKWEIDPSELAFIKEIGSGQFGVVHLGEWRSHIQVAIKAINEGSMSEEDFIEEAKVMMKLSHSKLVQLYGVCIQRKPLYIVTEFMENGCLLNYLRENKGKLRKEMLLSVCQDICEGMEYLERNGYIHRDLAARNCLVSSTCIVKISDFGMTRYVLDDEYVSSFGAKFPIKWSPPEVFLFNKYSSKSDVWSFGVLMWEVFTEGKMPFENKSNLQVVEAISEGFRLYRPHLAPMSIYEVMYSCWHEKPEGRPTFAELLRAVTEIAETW
UniProt Q5BJF2, sequence (whole entry, looked up): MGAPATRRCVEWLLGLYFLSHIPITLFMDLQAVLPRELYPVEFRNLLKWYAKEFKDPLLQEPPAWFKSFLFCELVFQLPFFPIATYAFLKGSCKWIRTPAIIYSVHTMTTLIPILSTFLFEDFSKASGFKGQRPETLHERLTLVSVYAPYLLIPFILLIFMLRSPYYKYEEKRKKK
UniProt P31751, sequence (whole entry, looked up): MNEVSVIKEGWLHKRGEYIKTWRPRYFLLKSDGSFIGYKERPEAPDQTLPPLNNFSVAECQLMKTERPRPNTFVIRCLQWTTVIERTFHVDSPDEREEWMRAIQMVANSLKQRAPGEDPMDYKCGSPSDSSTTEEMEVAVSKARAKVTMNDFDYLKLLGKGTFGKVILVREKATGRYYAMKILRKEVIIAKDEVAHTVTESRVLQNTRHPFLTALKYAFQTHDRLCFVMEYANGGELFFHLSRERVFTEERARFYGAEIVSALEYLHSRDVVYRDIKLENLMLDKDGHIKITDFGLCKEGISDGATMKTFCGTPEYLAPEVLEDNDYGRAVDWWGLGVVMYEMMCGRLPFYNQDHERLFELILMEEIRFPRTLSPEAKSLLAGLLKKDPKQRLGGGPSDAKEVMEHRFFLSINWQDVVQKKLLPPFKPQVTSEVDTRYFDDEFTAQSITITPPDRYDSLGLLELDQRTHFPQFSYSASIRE

Block 1 — observed: binding; method: radioligand binding; concentration: 10 µM
Structure (SMILES): CCC(=O)N[C@H]1CC[C@@H](C(=O)N(C)c2ccc(-c3nc4ccccc4o3)cc2)C1
target	inhibition [%]
CHRM5 (Homo sapiens, UniProt P08912)	-0.421
HRH3 (Homo sapiens, UniProt Q9Y5N1)	-8.17
HTR6 (Homo sapiens, UniProt P50406)	3.86
DRD2 (Homo sapiens, UniProt P14416)	14.3
TMEM97 (Homo sapiens, UniProt Q5BJF2)	33.6

Block 2 — Structure (SMILES): O=C1NC(=O)/C(=C/c2ccc3nccnc3c2)S1; observed: enzyme activity; mode: inhibitor; concentration: 0.5 µM; baseline: control
target	remaining activity [%]
MAP2K1 (Homo sapiens, UniProt Q02750)	89.5
MAPK11 (Homo sapiens, UniProt Q15759)	99.2
AKT2 (Homo sapiens, UniProt P31751)	101
MINK1 (Homo sapiens, UniProt Q8N4C8)	88.3
CAMK4 (Homo sapiens, UniProt Q16566)	106
Cyclin-dependent kinase 9, with cyclin K (CDK9, Homo sapiens, UniProt P50750)	86
PLK3 (Homo sapiens, UniProt Q9H4B4)	97.7
PAK3 (Homo sapiens, UniProt O75914)	97.4
DCLK2 (Homo sapiens, UniProt Q8N568)	94.3
KDR (Homo sapiens, UniProt P35968)	92.6
TXK (Homo sapiens, UniProt P42681)	96.8
MAPK1 (Homo sapiens, UniProt P28482)	85.2
GRK4 (Homo sapiens, UniProt P32298)	106
RPS6KA4 (Homo sapiens, UniProt O75676)	115
PNCK (Homo sapiens, UniProt Q6P2M8)	101

Block 3 — mode: inhibitor; concentration: 1 µM
Structure (SMILES): C=CC(=O)N1CCC[C@@H](n2nc(-c3ccc(Oc4ccccc4)cc3)c3c(N)ncnc32)C1
target	assay	inhibition
CDKL2 (Homo sapiens, UniProt Q92772)	enzyme activity	0%
FLT3 (Homo sapiens, UniProt P36888, D835Y)	–	60%
EGFR (Homo sapiens, UniProt P00533, T790M)	–	96%
PIK3CA (Homo sapiens, UniProt P42336, Q546K)	enzyme activity	14%
WEE1 (Homo sapiens, UniProt P30291)	enzyme activity	0%
TGFBR2 (Homo sapiens, UniProt P37173)	enzyme activity	4%
TNNI3K (Homo sapiens, UniProt Q59H18)	enzyme activity	66%
Tyrosine-protein kinase ABL1, phosphorylated (ABL1, Homo sapiens, UniProt P00519)	–	35%

Block 4 — species: mouse; matrix: microsomes or S9; concentration: 2 µM; time: 0.5 h
Structure (SMILES)	remaining compound
CC1CCC(NS(=O)(=O)CC(=O)N(C)Cc2ccccn2)CC1 (stereo not drawn)	14.7%
CCN(CCCN(C)C)S(=O)(=O)c1ccc(S(=O)(=O)CC)cc1	89.4%
O=C1C=C(N(Cc2ccc(Cl)nc2)C2COC2)CO1	46.9%
O=C(NC12CC3CC(CC(C3)C1)C2)C1CCN(c2cc(-n3cccc3)ncn2)CC1	11.3%
Cc1oc(C)c(C(=O)Nc2nnc(C)n2C)c1Br	46.5%

For quick reference, copied from above (block 3):
target	assay	inhibition
Tyrosine-protein kinase ABL1, phosphorylated (ABL1, Homo sapiens, UniProt P00519)	–	35%
TGFBR2 (Homo sapiens, UniProt P37173)	enzyme activity	4%
TNNI3K (Homo sapiens, UniProt Q59H18)	enzyme activity	66%
